{"data": "Measured values collected from several papers", "PFF0160c E182D": "Dihydroorotate dehydrogenase (quinone), mitochondrial (PFF0160c, Plasmodium falciparum, UniProt Q08210, E182D)", "Sialidase-3": "Sialidase-3 (Homo sapiens, UniProt Q9UQ49)", "PFF0160c": "Dihydroorotate dehydrogenase (quinone), mitochondrial (PFF0160c, Plasmodium falciparum, UniProt Q08210)", "HLA class I histocompatibility antigen, B alpha chain": "HLA class I histocompatibility antigen, B alpha chain (Homo sapiens, UniProt P01889)", "note": "Lines come from different studies, so protocols differ."}
{"Structure (SMILES)": "CC(C)C[C@H](NC(=O)[C@H]1O[C@@H]1C(=O)O)C(=O)NCCCCN=C(N)N", "target": "Cathepsin K (CTSK, Homo sapiens, UniProt P43235)", "assay": "enzyme activity, inhibitor", "endpoint": "IC50", "value": "0.64 nM"}
{"Structure (SMILES)": "COCC(C)n1c(SCC(=O)Nc2cc(C(F)(F)F)ccc2Cl)nc2ccccc2c1=O (centres unmarked)", "target": "PFF0160c E182D", "assay": "enzyme activity, inhibitor, absorbance", "endpoint": "IC50", "value": "> 10000 nM"}
{"Structure (SMILES)": "Cc1cn([C@H]2[C@H]([C@H](O)[C@H](O)CO)OC(C(=O)O)=C[C@@H]2O)nn1", "target": "Sialidase-3", "assay": "enzyme activity, inhibitor", "endpoint": "IC50", "value": "7500 nM"}
{"Structure (SMILES)": "CC[C@H](C)[C@H](NC(C)=O)C(=O)N[C@@H](CCC(=O)O)C(=O)N[C@H](C(=O)N[C@H](C=O)CC(=O)O)[C@@H](C)O", "target": "Caspase-5 (CASP5, Homo sapiens, UniProt P51878)", "assay": "enzyme activity, inhibitor", "endpoint": "IC50", "value": "8.18 nM"}
{"Structure (SMILES)": "COc1ccc(S(=O)(=O)Oc2ccc3ccccc3c2C=NNC(=O)c2ccc(F)cc2)cc1", "target": "CA2 (Homo sapiens, UniProt P00918)", "assay": "enzyme activity, inhibitor, absorbance", "endpoint": "IC50", "value": "252 nM"}
{"Structure (SMILES)": "Cn1nc2c(=O)n(C3CC3)ccc2c1Cc1ccc(C(F)(F)F)nc1", "target": "PFF0160c", "assay": "enzyme activity, inhibitor", "endpoint": "IC50", "value": "1000 nM"}
{"Structure (SMILES)": "CC(C)C[C@H](NC(=O)[C@@H](NC(=O)[C@H](CCCCN)NC(=O)[C@H](CC(=O)O)NC(=O)[C@H](Cc1ccc(O)cc1)NC(=O)[C@H](C)NC(=O)[C@@H](N)CCCNC(=N)N)[C@@H](C)O)C(=O)N[C@@H](Cc1ccc(O)cc1)C(=O)N[C@@H](Cc1ccccc1)C(=O)O", "target": "HLA class I histocompatibility antigen, B alpha chain", "assay": "cell-free assay", "endpoint": "IC50", "value": "7830 nM"}
{"Structure (SMILES)": "CCn1ncc2c([C@](O)(c3ccc(C(F)(F)F)c(Cl)c3)C3CC3)n(C)nc2c1=O", "target": "PFF0160c", "assay": "enzyme activity, inhibitor", "endpoint": "IC50", "value": "14 nM"}
{"Structure (SMILES)": "CC[C@H](C)[C@H](NC(=O)[C@H](CO)NC(=O)[C@H](Cc1ccc(O)cc1)NC(=O)[C@@H](NC(=O)[C@@H](N)CCCCN)C(C)C)C(=O)N1CCC[C@H]1C(=O)N[C@@H](Cc1c[nH]cn1)C(=O)N[C@@H](CCC(N)=O)C(=O)N[C@@H](CCSC)C(=O)O", "target": "HLA class I histocompatibility antigen, B alpha chain", "assay": "cell-free assay", "endpoint": "IC50", "value": "55800 nM"}
{"Structure (SMILES)": "CC(C)C[C@H](NC(=O)[C@H](Cc1ccccc1)NC(=O)[C@H](Cc1ccc(O)cc1)NC(=O)CNC(=O)[C@H](CCCCN)NC(=O)[C@H](CO)NC(=O)[C@H](CCC(N)=O)NC(=O)CNC(=O)[C@@H](NC(=O)[C@H](CO)NC(=O)[C@@H]1CCCN1C(=O)[C@H](CO)NC(=O)[C@H](CCC(N)=O)NC(=O)[C@H](Cc1ccc(O)cc1)NC(=O)[C@H](CCC(=O)O)NC(=O)[C@H](C)NC(=O)[C@H](CCCCN)NC(=O)[C@@H](N)Cc1ccccc1)C(C)C)C(=O)N[C@@H](Cc1ccccc1)C(=O)N[C@@H](CCCNC(=N)N)C(=O)N1CCC[C@H]1C(=O)N[C@@H](CCCNC(=N)N)C(=O)N[C@@H](CC(N)=O)C(N)=O", "target": "NMUR1 (Homo sapiens, UniProt Q9HB89)", "assay": "ligand displacement, radioligand", "endpoint": "IC50", "value": "0.0427 nM"}
{"Structure (SMILES)": "CC(C)(C)CN[C@H]1[C@H]([C@H](O)[C@H](O)CO)OC(C(=O)O)=C[C@@H]1O", "target": "Sialidase-3", "assay": "enzyme activity, inhibitor", "endpoint": "IC50", "value": "> 500000 nM"}
{"Structure (SMILES)": "Cc1[nH]c(C)c(-c2ccc(OCCn3cnc(Cl)c3Cl)cc2)c(=O)c1Br", "target": "PFF0160c E182D", "assay": "enzyme activity, inhibitor, absorbance", "endpoint": "IC50", "value": "> 10000 nM"}
{"Structure (SMILES)": "CCn1cc(C2CC2)c2c([C@H](N)c3ccc(C(F)(F)F)nc3)n(C)nc2c1=O", "target": "PFF0160c", "assay": "enzyme activity, inhibitor", "endpoint": "IC50", "value": "200 nM"}
{"Structure (SMILES)": "Cn1c(=O)cnc2ccc(F)c(CCNC[C@H]3CN(c4cnc5c(n4)NC(=O)CO5)C(=O)O3)c21", "target": "gyrA (Escherichia coli K-12, UniProt P0AES4)", "assay": "enzyme activity, inhibitor", "endpoint": "IC50", "value": "11 nM"}
{"Structure (SMILES)": "CCN(C)C(=O)Oc1ccc(CCC(=O)N2CCN(Cc3ccccc3)CC2)cc1", "target": "Cholinesterase (BCHE, Equus caballus, UniProt P81908)", "assay": "enzyme activity, inhibitor, Ellman", "endpoint": "IC50", "value": "26500 nM"}
{"Structure (SMILES)": "CSCC[C@H](NC(=O)[C@@H](N)CCCNC(=N)N)C(=O)N[C@@H](Cc1c[nH]c2ccccc12)C(=O)N[C@@H](CO)C(=O)N[C@@H](CCCCN)C(=O)N1CCC[C@H]1C(=O)N[C@@H](CC(C)C)C(=O)N[C@@H](CCC(N)=O)C(=O)N[C@@H](Cc1ccccc1)C(=O)O", "target": "HLA class I histocompatibility antigen, B alpha chain", "assay": "cell-free assay", "endpoint": "IC50", "value": "43900 nM"}
{"Structure (SMILES)": "CCn1cc(C)c2c(C(O)c3ccc(Cl)c(F)c3)n(C)nc2c1=O (centres unmarked)", "target": "PFF0160c", "assay": "enzyme activity, inhibitor", "endpoint": "IC50", "value": "23 nM"}
{"Structure (SMILES)": "CC(NC(=O)c1ccc(-n2cnc3ccccc32)cc1)c1ccc(S(N)(=O)=O)cc1 (centres unmarked)", "target": "PFF0160c E182D", "assay": "enzyme activity, inhibitor, absorbance", "endpoint": "IC50", "value": "3410 nM"}
{"Structure (SMILES)": "O=C(O)C1=C[C@H](O)[C@@H](n2cc(-c3ccc(-c4ccccc4)cc3)nn2)[C@H]([C@H](O)[C@H](O)CO)O1", "target": "Sialidase-4 (Homo sapiens, UniProt Q8WWR8)", "assay": "enzyme activity, inhibitor", "endpoint": "IC50", "value": "80000 nM"}
{"Structure (SMILES)": "C[C@@H]1CN(c2ccc(O)c(NS(=O)(=O)c3ccc(-c4ccco4)cc3)c2)C[C@H](C)N1", "target": "PFF0160c", "assay": "enzyme activity, inhibitor, absorbance", "endpoint": "IC50", "value": "6000 nM"}
{"Structure (SMILES)": "CCCCCc1cn([C@H]2[C@H]([C@H](O)[C@H](O)CO)OC(C(=O)O)=C[C@@H]2O)nn1", "target": "Sialidase-3", "assay": "enzyme activity, inhibitor", "endpoint": "IC50", "value": "> 500000 nM"}
{"Structure (SMILES)": "Cn1nc(C(=O)N2CCC(c3[nH]ncc3Cc3ccccc3)CC2)c2ccccc2c1=O", "target": "PFF0160c E182D", "assay": "enzyme activity, inhibitor, absorbance", "endpoint": "IC50", "value": "800 nM"}
{"Structure (SMILES)": "CCN(C)C(=O)Oc1ccc(CCC(=O)N2CCC(Cc3ccccc3)CC2)cc1OC", "target": "Cholinesterase (BCHE, Equus caballus, UniProt P81908)", "assay": "enzyme activity, inhibitor, Ellman", "endpoint": "IC50", "value": "2300 nM"}
{"Structure (SMILES)": "CCn1c(-c2ccccc2)cc2nnc3ccccc3c21", "target": "PFF0160c E182D", "assay": "enzyme activity, inhibitor, absorbance", "endpoint": "IC50", "value": "482 nM"}
{"Structure (SMILES)": "CCOC(=O)c1[nH]nc(Cc2ccc(C(F)(F)F)cc2)c1C", "target": "PFF0160c", "assay": "enzyme activity, inhibitor, absorbance", "endpoint": "IC50", "value": "> 100000 nM"}
{"Structure (SMILES)": "COc1ccc(-n2ccnc2SCC(=O)Nc2cc(C(F)(F)F)ccc2Cl)c(OC)c1", "target": "PFF0160c", "assay": "enzyme activity, inhibitor, absorbance", "endpoint": "IC50", "value": "55.4 nM"}
{"Structure (SMILES)": "Cn1nccc1[C@]1(CNC(=O)c2ccc(F)c(F)c2-c2ccc(C(F)(F)F)cc2)NC(=O)NC1=O", "target": "CAPN1 (Homo sapiens, UniProt P07384)", "assay": "enzyme activity, inhibitor", "endpoint": "IC50", "value": "> 100000 nM"}
{"Structure (SMILES)": "[2H]c1c([2H])c([C@]2([2H])CCCN2C(=O)C(C)(C)Oc2ccc3cn[nH]c3c2)c([2H])c([2H])c1C([2H])([2H])[2H]", "target": "BRSK2 (Homo sapiens, UniProt Q8IWQ3)", "assay": "binding, competition with immobilised ligand", "setting": "1 µM", "endpoint": "remaining binding", "value": "85%"}
{"Structure (SMILES)": "Cn1nc2c(=O)n(C3CC3)cnc2c1[C@](O)(c1cnc(C(F)(F)F)c(Cl)c1)C(F)(F)F", "target": "PFF0160c", "assay": "enzyme activity, inhibitor", "endpoint": "IC50", "value": "15.8 nM"}
{"Structure (SMILES)": "COc1cc(CCC(=O)N2CCC(Cc3ccccc3)CC2)ccc1OC(=O)N1CCOCC1", "target": "Cholinesterase (BCHE, Homo sapiens, UniProt P06276)", "assay": "enzyme activity, inhibitor, Ellman", "endpoint": "IC50", "value": "7900 nM"}
{"Structure (SMILES)": "O=C(Nc1cccc(CN2CCN(C(=O)c3cccc(Cl)c3)CC2)c1)c1cccs1", "target": "PFF0160c E182D", "assay": "enzyme activity, inhibitor, absorbance", "endpoint": "IC50", "value": "7440 nM"}
{"Structure (SMILES)": "CCCCCCN[C@H]1[C@H]([C@H](O)[C@H](O)CO)OC(C(=O)O)=C[C@@H]1O", "target": "Sialidase-3", "assay": "enzyme activity, inhibitor", "endpoint": "IC50", "value": "430000 nM"}
{"note": "Excerpt of the above:"}
{"Structure (SMILES)": "O=C(O)C1=C[C@H](O)[C@@H](n2cc(-c3ccc(-c4ccccc4)cc3)nn2)[C@H]([C@H](O)[C@H](O)CO)O1", "target": "Sialidase-4 (Homo sapiens, UniProt Q8WWR8)", "assay": "enzyme activity, inhibitor", "endpoint": "IC50", "value": "80000 nM"}
{"Structure (SMILES)": "CC[C@H](C)[C@H](NC(C)=O)C(=O)N[C@@H](CCC(=O)O)C(=O)N[C@H](C(=O)N[C@H](C=O)CC(=O)O)[C@@H](C)O", "target": "Caspase-5 (CASP5, Homo sapiens, UniProt P51878)", "assay": "enzyme activity, inhibitor", "endpoint": "IC50", "value": "8.18 nM"}
